{"data": "Published values of several laboratories", "organism": "Enterococcus faecalis", "note": "Compare with care: the assays were run in different laboratories."}
{"Structure (SMILES)": "CC[C@H](C)[C@H](NC(=O)[C@H](CCCNC(=N)N)NC(=O)[C@@H]1CCCN1C(=O)[C@H](CCCNC(=N)N)NC(=O)[C@H](Cc1ccccc1)NC(=O)[C@H](Cc1c[nH]cn1)NC(=O)[C@H](CCCNC(=N)N)NC(=O)[C@H](CC(C)C)NC(=O)[C@H](CCCCN)NC(=O)CNC(=O)[C@H](CC(C)C)NC(=O)[C@H](Cc1ccccc1)NC(=O)[C@H](CCCNC(=N)N)NC(=O)CNC(=O)[C@H](Cc1ccccc1)NC(=O)[C@H](CCCNC(=N)N)NC(=O)CNC(=O)[C@H](CCCNC(=N)N)NC(=O)[C@H](CCC(N)=O)NC(=O)[C@@H](NC(=O)[C@@H](N)CC(C)C)[C@@H](C)CC)C(=O)N[C@@H](CCCCN)C(=O)N[C@@H](Cc1ccccc1)C(=O)N[C@@H](CCCCN)C(=O)NCC(=O)N[C@@H](CCCCN)C(=O)N[C@@H](C)C(=O)NCC(=O)N[C@@H](Cc1c[nH]c2ccccc12)C(=O)N[C@H](C(=O)N[C@H](C(=O)NCC(=O)O)C(C)C)[C@@H](C)O", "test system": "ATCC 29212", "MIC": "4.39 µg/mL"}
{"Structure (SMILES)": "CN[C@@H]1[C@H](O)[C@H](NC)[C@H]2O[C@]3(O)[C@H](O[C@@H]2[C@H]1O)O[C@H](C)C[C@H]3NC(=O)CNC(C)(C)C", "test": "microbial growth, broth dilution", "test system": "ATCC33186", "MIC": "> 200 µg/mL"}
{"Structure (SMILES)": "CN[C@H](CC(C)C)C(=O)N[C@H]1C(=O)N[C@@H](CC(N)=O)C(=O)N[C@H]2C(=O)N[C@H]3C(=O)N[C@H](C(=O)N[C@H](C(=O)NCc4cn(CCCCC(=O)N[C@H](C(=O)N[C@@H](CCN)C(=O)N[C@H]5CCNC(=O)[C@H]([C@@H](C)O)NC(=O)[C@H](CCN)NC(=O)[C@H](CCN)NC(=O)[C@H](CC(C)C)NC(=O)[C@@H](CC(C)C)NC(=O)[C@H](CCN)NC5=O)[C@@H](C)O)nn4)c4cc(O)cc(O)c4-c4cc3ccc4O)[C@H](O)c3ccc(c(Cl)c3)Oc3cc2cc(c3O[C@@H]2O[C@H](CO)[C@@H](O)[C@H](O)[C@H]2O[C@H]2C[C@](C)(N)[C@H](O)[C@H](C)O2)Oc2ccc(cc2Cl)[C@H]1O", "test": "broth microdilution", "test system": "vancomycin-resistant, tryptic soy broth", "setting": "20 to 24 h, 37 °C, 0.002% polysorbate 80", "MIC": "64 µg/mL"}
{"Structure (SMILES)": "CC(C)C[C@H](NC(=O)[C@@H](NC(=O)[C@H](CCCNC(=N)N)NC(=O)[C@H](CCC(N)=O)NC(=O)[C@H](Cc1ccccc1)NC(=O)[C@H](Cc1ccc(O)cc1)NC(=O)[C@H](CC(N)=O)NC(=O)[C@H](Cc1c[nH]c2ccccc12)NC(=O)[C@@H](NC(=O)[C@H](CCCNC(=N)N)NC(=O)[C@H](CCCCN)NC(=O)[C@@H](N)Cc1ccccc1)C(C)C)C(C)C)C(=O)N[C@H](C(=O)N[C@@H](CCCCN)C(=O)N[C@@H](CCCCN)C(=O)N[C@@H](Cc1ccc(O)cc1)C(N)=O)C(C)C", "test": "broth dilution", "test system": "KCTC 3511", "MIC": "> 100 µM"}
{"Structure (SMILES)": "O=C(c1ccccc1O)c1[nH]c(Cl)c(Cl)c1-n1c(C(=O)c2ccccc2O)cc(Cl)c1Cl", "test": "microbial growth", "test system": "ATCC29212", "MIC": "13.3 µM"}
{"Structure (SMILES)": "C#CCOc1ccc(CN[C@@]2(C)C[C@H](O[C@H]3[C@H](Oc4c5cc6cc4Oc4ccc(cc4Cl)[C@@H](O)[C@@H](NC(=O)[C@@H](CC(C)C)NC)C(=O)N[C@@H](CC(N)=O)C(=O)N[C@H]6C(=O)N[C@H]4C(=O)N[C@H](C(=O)N[C@H](C(=O)O)c6cc(O)cc(O)c6-c6cc4ccc6O)[C@H](O)c4ccc(c(Cl)c4)O5)O[C@H](CO)[C@@H](O)[C@@H]3O)O[C@@H](C)[C@H]2O)cc1OC", "test": "broth microdilution", "test system": "vancomycin-resistant", "MIC": "20 µM"}
{"Structure (SMILES)": "CNC(C)C1CCC(N)C(OC2C(N)CC(N)C(OC3OCC(C)(O)C(NC)C3O)C2O)O1 (stereo not shown)", "test system": "clinical isolate", "setting": "18 to 20 h, 37 °C", "MIC": "2 µM"}
{"Structure (SMILES)": "CC[C@H](C)[C@H](N)C(=O)N[C@@H](CCCNC(=N)N)C(=O)N[C@H](C(=O)N[C@@H](Cc1c[nH]c2ccccc12)C(=O)N[C@@H](CCCCN)C(=O)N[C@@H](CCCCN)C(=O)N[C@H](C(=O)N[C@H](C(=O)N[C@@H](CCCNC(=N)N)C(=O)N[C@@H](CCCCN)C(=O)N[C@@H](Cc1c[nH]c2ccccc12)C(=O)N[C@@H](CCCCN)C(=O)N[C@@H](C)C(=O)N[C@H](C(=O)N[C@@H](Cc1c[nH]c2ccccc12)C(=O)N[C@@H](Cc1c[nH]cn1)C(N)=O)[C@@H](C)CC)C(C)C)[C@@H](C)CC)C(C)C", "test": "broth dilution", "test system": "KCTC 3511", "MIC": "6.3 µM"}
{"Structure (SMILES)": "CN[C@H](CC(C)C)C(=O)N[C@H]1C(=O)N[C@@H](CC(N)=O)C(=O)N[C@H]2C(=O)N[C@H]3C(=O)N[C@H](C(=O)N[C@H](C(=O)NCc4cn(CC(=O)N[C@H](C(=O)N[C@@H](CCN)C(=O)N[C@H]5CCNC(=O)[C@H]([C@@H](C)O)NC(=O)[C@H](CCN)NC(=O)[C@H](CCN)NC(=O)[C@H](CC(C)C)NC(=O)[C@@H](CC(C)C)NC(=O)[C@H](CCN)NC5=O)[C@@H](C)O)nn4)c4cc(O)cc(O)c4-c4cc3ccc4O)[C@H](O)c3ccc(c(Cl)c3)Oc3cc2cc(c3O[C@@H]2O[C@H](CO)[C@@H](O)[C@H](O)[C@H]2O[C@H]2C[C@](C)(N)[C@H](O)[C@H](C)O2)Oc2ccc(cc2Cl)[C@H]1O", "test": "broth microdilution", "test system": "vancomycin-resistant, tryptic soy broth", "setting": "20 to 24 h, 37 °C, 0.002% polysorbate 80", "MIC": "8 µg/mL"}
{"Structure (SMILES)": "CC(C)[C@H](NC(=O)CNC(=O)CNC(=O)[C@H](Cc1ccc(O)cc1)NC(=O)[C@H](CS)NC(=O)[C@@H](NC(=O)[C@H](Cc1c[nH]c2ccccc12)NC(=O)[C@H](Cc1ccccc1)NC(=O)[C@H](CS)NC(=O)[C@H](Cc1c[nH]c2ccccc12)NC(=O)[C@@H](N)CCCNC(=N)N)C(C)C)C(=O)N[C@@H](CS)C(=O)N[C@@H](Cc1ccc(O)cc1)C(=O)N[C@@H](CCCNC(=N)N)C(=O)N[C@@H](CCCNC(=N)N)C(=O)N[C@@H](CS)C(=O)N[C@@H](CCCNC(=N)N)C(=O)O", "test system": "ATCC 29212", "MIC": "2.2 µg/mL"}
{"Structure (SMILES)": "c1ccc(CCNC2CCCc3c2[nH]c2ccc(C4CCCCC4)cc32)cc1 (stereo not shown)", "test": "broth microdilution", "test system": "JH2-2", "MIC": "2 µg/mL"}
{"Structure (SMILES)": "CN[C@H](CC(C)C)C(=O)N[C@H]1C(=O)N[C@@H](CC(N)=O)C(=O)N[C@H]2C(=O)N[C@H]3C(=O)N[C@H](C(=O)N[C@H](C(=O)O)c4cc(O)cc(O)c4-c4cc3ccc4O)[C@H](O)c3ccc(c(Cl)c3)Oc3cc2cc(c3O[C@@H]2O[C@H](CO)[C@@H](O)[C@H](O)[C@H]2O[C@H]2C[C@](C)(NCc3ccc(OCc4cn(CC(=O)N[C@H](C(=O)N[C@@H](CCN)C(=O)N[C@H]5CCNC(=O)[C@H]([C@@H](C)O)NC(=O)[C@H](CCN)NC(=O)[C@H](CCN)NC(=O)[C@H](CC(C)C)NC(=O)[C@@H](CC(C)C)NC(=O)[C@H](CCN)NC5=O)[C@@H](C)O)nn4)c(OC)c3)[C@H](O)[C@H](C)O2)Oc2ccc(cc2Cl)[C@H]1O", "test": "broth microdilution", "test system": "vancomycin-resistant", "MIC": "24 µM"}
{"Structure (SMILES)": "CN[C@@H]1[C@H](O)[C@H](NC)[C@H]2O[C@]3(O)[C@H](O[C@@H]2[C@H]1O)O[C@H](C)C[C@H]3NC(=O)Cc1ccccc1", "test": "microbial growth, broth dilution", "test system": "ATCC33186", "MIC": "> 200 µg/mL"}
{"note": "For quick reference, copied from above:"}
{"Structure (SMILES)": "c1ccc(CCNC2CCCc3c2[nH]c2ccc(C4CCCCC4)cc32)cc1 (stereo not shown)", "test": "broth microdilution", "test system": "JH2-2", "MIC": "2 µg/mL"}
